# Experimental data from different studies.
# Lines come from different studies, so protocols differ. ± marks the error that the study gave.
SMILES,tested on,assay,test system,conditions,how to read,endpoint,result
CC(=O)N[C@H](CSSC[C@H](N)C(=O)O)C(=O)N[C@H](C)C(=O)N[C@H](CCCNC(=N)N)C(=O)N[C@H](CCCNC(=N)N)C(=O)N[C@H](CCCNC(=N)N)C(=O)N[C@H](C)C(=O)N[C@H](CCCNC(=N)N)C(N)=O,,,"male human, plasma","intravenous, 0.5 mg, single dose, healthy volunteers",,half-life,19.4 h
CN1CCC[C@]1(C)/C=C/S(=O)(=O)NC(=O)Nc1c2c(cc3c1CCC3)CCC2,,,"human, plasma","oral, 25 mg, single dose, healthy volunteers",,half-life,6.5 h
[64Cu+2].c1ccc(CNCc2ccc(CN3CCCN4CCNCCCN(CC4)CC3)cc2)nc1,CXCR4 (human),,"NOD/SCID mice, U87 xenografts, U87 control tumour",480 min post-injection,,tissue uptake,2.92 ± 0.77 %ID/g
Cc1ccc(OCC(=O)N(Cc2cccs2)c2ccn[nH]2)cc1,,,"beagle dog, male, plasma","oral gavage, 100 mg/kg",,half-life,5.25 h
COc1cc(CCC(C)=O)ccc1O,mouse mAb 1-D6,"antibody binding, indirect competitive ELISA",,together with: coating antigen 5-OVA,,IC50,0.122 µg/mL
CCCCCCCCCCCC(=O)NCCC(=O)N[C@H](CCCNC(=N)N)C(=O)N[C@H](CCCNC(=N)N)C(=O)N[C@H](CCCNC(=N)N)C(=O)N[C@H](CCCNC(=N)N)C(=O)N[C@H](CCCNC(=N)N)C(=O)N[C@@H](CCCNC(=N)N)C(=O)N[C@@H](CCCNC(=N)N)C(=O)N[C@@H](CCCNC(=N)N)C(=O)N[C@@H](CCCNC(=N)N)C(=O)N[C@@H](CCCCNC(=S)Nc1ccc2c(c1)C(=O)OC21c2ccc(O)cc2Oc2cc(O)ccc21)C(N)=O,Jurkat,flow cytometry,,"10 µM, 48 h, loaded 10 min at 37 °C, then washed","relative to: 0 h, higher = more retained",retained fluorescence,~20%
CC(C)[C@H](NC(=O)CNC(=O)[C@H](CCC(N)=O)NC(=O)[C@H](C)N)C(=O)O,,LC-MS/MS,"human, male, plasma","intravenous, 20 mg/kg three times daily, day 3, first dose, 10 min infusion, geometric mean",,half-life,0.13 h
[2H]C([2H])([2H])NC(=O)c1ccc(N2C(=S)N(c3ccc(C#N)c(C(F)(F)F)c3)C(=O)C2(C)C)cc1F,,,"male human, plasma","oral, 160 mg, single dose, fasted",,half-life,159 h
CC(C)(O)c1ncc([S@](N)(=O)=NC(=O)Nc2c3c(cc4c2CCC4)CCC3)s1,,,"human, plasma","oral, 10 mg, single dose, fasted, healthy volunteers",,half-life,7.8 h
CC12CC(c3ccc(S(C)(=O)=O)cc3)C3=C4CCC(=O)C=C4CCC3C1CCC2(O)C(F)(F)C(F)(F)F (stereo not shown),,,"human, plasma","intravenous, 15.7 µg",,half-life,~40 h
NS(=O)(=O)Nc1ncnc(OCCOc2ncc(Br)cn2)c1-c1ccc(Br)cc1,,"Michaelis-Menten plot, measured: compound formation","male Sprague-Dawley rat, liver microsomes","1500 mg/kg daily, 4 weeks",,Vmax,522 ± 29 pmol/min/mg
CCCC[C@H](NC(C)=O)C(=O)N[C@H]1CC(=O)NCCCC[C@@H](C(=O)N[C@@H](C(=O)N2CCC[C@@H]2C(N)=O)C(C)C)NC(=O)[C@H](Cc2c[nH]c3ccccc23)NC(=O)[C@H](CCCN=C(N)N)NC(=O)[C@@H](Cc2ccc3ccccc3c2)NC(=O)[C@@H]2CCCN2C1=O,,,"Beagle dog, both sexes, plasma","subcutaneous, once daily, 0.75 mg/kg, day 1",,half-life,2 ± 0.1 h
CCc1cc(Nc2nc(-c3ccc(-n4cnc(C)c4)c(F)c3)cs2)c(C)cc1C,,,"human, plasma","oral, 200 mg, multiple doses, once daily",,half-life,8.7 h

# Excerpt of the above:
SMILES,tested on,assay,test system,conditions,how to read,endpoint,result
COc1cc(CCC(C)=O)ccc1O,mouse mAb 1-D6,"antibody binding, indirect competitive ELISA",,together with: coating antigen 5-OVA,,IC50,0.122 µg/mL
CCCCCCCCCCCC(=O)NCCC(=O)N[C@H](CCCNC(=N)N)C(=O)N[C@H](CCCNC(=N)N)C(=O)N[C@H](CCCNC(=N)N)C(=O)N[C@H](CCCNC(=N)N)C(=O)N[C@H](CCCNC(=N)N)C(=O)N[C@@H](CCCNC(=N)N)C(=O)N[C@@H](CCCNC(=N)N)C(=O)N[C@@H](CCCNC(=N)N)C(=O)N[C@@H](CCCNC(=N)N)C(=O)N[C@@H](CCCCNC(=S)Nc1ccc2c(c1)C(=O)OC21c2ccc(O)cc2Oc2cc(O)ccc21)C(N)=O,Jurkat,flow cytometry,,"10 µM, 48 h, loaded 10 min at 37 °C, then washed","relative to: 0 h, higher = more retained",retained fluorescence,~20%
